Results from different studies.
Every numbered part comes from another study and shows a few of its results, in no order. Positions count from the first letter of the parent shown.

Block 1
Organism: Sarcocystis neurona
Effect on: parasite growth
Tested at: 10 µM
Time: 96 h
Baseline: untreated
Measurement: log2 fold change
c1ccc2c(c1)Nc1ccccc1S2: 0.46
OCCN1CCN(CCCN2c3ccccc3Sc3ccc(Cl)cc32)CC1: -3.51
C[C@H]1[C@H](OC(=O)CCC(=O)O)O[C@@H]2O[C@@]3(C)CC[C@H]4[C@H](C)CC[C@@H]1[C@@]24OO3: -2.87

Block 2
Target: UBE2W UBC core domain (UniProt Q96B02)
Technique: yeast two-hybrid
Sample: yeast
Notes: mostly zero background
Baseline: not given
Reading: higher = stronger interaction
Measurement: lacZ reporter activity
B1: MEX3B RING domain (UniProt Q6ZN04); chain SGLRRKGSRDCSVCFESEVIAALVPCGHNLFCMECANRICEKSEPECPVCHTAVTQAIRIF
B2: MKRN2 RING domain (UniProt Q9H000); chain FAFQASQDKVCSICMEVILEKASASERRFGILSNCNHTYCLSCIRQWRCAKQFENPIIKSCPECRVISEFVIPSV
B3: RNF183 RING domain (UniProt Q96D59); chain EQQGRELEAECPVCWNPFNNTFHTPKMLDCCHSFCVECLAHLSLVTPARRRLLCPLCRQPTVLASGQP
B4: TRIM60 RING domain (UniProt Q495X7); chain ALVNLQEESSCPICLEYLKDPVTINCGHNFCRSCLSVSWKDLDDTFPCPVCRFCFPYKSFRR
B5: TRIM31 RING domain (UniProt Q9BZY9); chain FVNKLQEEVICPICLDILQKPVTIDCGHNFCLKCITQIGETSCGFFKCPLCKTSVRKNAIRF
Target sequence (chain): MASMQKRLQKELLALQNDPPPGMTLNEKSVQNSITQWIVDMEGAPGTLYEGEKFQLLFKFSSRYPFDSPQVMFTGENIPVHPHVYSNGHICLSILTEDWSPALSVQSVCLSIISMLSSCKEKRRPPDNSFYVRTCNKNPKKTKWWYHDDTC
KPDKMEETLTCIICQDLLHDCVSLQPCMHTFCAACYSGWMERSSLCPTCRCPVERICKNH (CHFR RING domain (UniProt Q96EP1)): 10800
B1 (MEX3B RING domain): 0
B2 (MKRN2 RING domain): 0
RYRQMEERITCPICIDSHIRLVFQCGHGACAPCGSALSACPICRQPIRDRIQIF (MIB2 RING domain (UniProt Q96AX9)): 0
B3 (RNF183 RING domain): 0
B4 (TRIM60 RING domain): 0
B5 (TRIM31 RING domain): 0
FVKTVEDKYKCEKCHLVLCSPKQTECGHRFCESCMAALLSSSSPKCTACQESIVKDKVF (TRAF3 RING domain (UniProt Q13114)): 0

Block 3
Target: CCNE1, cyclin fold, Cln2 fusion (human)
Technique: yeast growth competition, sequencing
Sample: yeast
Notes: strong parent motif
Baseline: not given
Reading: higher = stronger binding
Measurement: normalised enrichment score
Starting sequence: viral docking peptide; KGVKRKLFAEDSS; partner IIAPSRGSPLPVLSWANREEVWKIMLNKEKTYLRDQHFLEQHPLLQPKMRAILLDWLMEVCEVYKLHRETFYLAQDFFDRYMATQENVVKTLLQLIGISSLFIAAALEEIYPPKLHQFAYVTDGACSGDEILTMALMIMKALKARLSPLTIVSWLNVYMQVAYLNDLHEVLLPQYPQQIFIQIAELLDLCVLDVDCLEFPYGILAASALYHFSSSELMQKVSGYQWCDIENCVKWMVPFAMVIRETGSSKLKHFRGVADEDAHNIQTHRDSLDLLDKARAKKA
KGVKRKLFYEDSS [A9Y]: 7.36
KGVKRILFAEDSS [K6I]: 7.22
KGVKRKLFAEYSS [D11Y]: 6.79
KLVKRKLFAEDSS [G2L]: 6.71
KGVKRKLFAIDSS [E10I]: 6.33
KGVKRDLFAEDSS [K6D]: 1.32
KGVDRKLFAEDSS [K4D]: 0.959
KGVKRKLMAEDSS [F8M]: 1.06

Block 4
Target: Sodium-dependent dopamine transporter (SLC6A3, Homo sapiens, UniProt Q01959)
Chain of UniProt Q01959 (whole entry, looked up): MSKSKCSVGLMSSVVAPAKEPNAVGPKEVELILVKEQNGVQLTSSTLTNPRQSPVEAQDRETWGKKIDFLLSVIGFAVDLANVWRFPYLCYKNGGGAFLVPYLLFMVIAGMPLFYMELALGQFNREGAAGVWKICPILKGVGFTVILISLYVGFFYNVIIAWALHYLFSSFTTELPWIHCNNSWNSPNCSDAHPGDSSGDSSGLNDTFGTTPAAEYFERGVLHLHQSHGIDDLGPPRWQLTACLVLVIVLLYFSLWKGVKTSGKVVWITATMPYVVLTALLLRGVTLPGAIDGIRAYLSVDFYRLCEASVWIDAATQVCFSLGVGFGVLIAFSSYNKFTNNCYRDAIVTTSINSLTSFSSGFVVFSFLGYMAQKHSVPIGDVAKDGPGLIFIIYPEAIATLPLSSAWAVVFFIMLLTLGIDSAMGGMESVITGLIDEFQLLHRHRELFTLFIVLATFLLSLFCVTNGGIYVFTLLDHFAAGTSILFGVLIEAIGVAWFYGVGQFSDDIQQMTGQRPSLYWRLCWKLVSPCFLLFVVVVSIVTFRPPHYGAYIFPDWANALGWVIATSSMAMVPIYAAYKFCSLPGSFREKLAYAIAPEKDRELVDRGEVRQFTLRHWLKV
Effect on: binding
Technique: radioligand binding
Tested at: 10 µM
Measurement: inhibition
CCOC(=O)c1cc2cc(-c3cc(C(=O)NCc4ccc(C(=O)O)cc4)nn3C)ccc2[nH]1: 2.26%
Cc1c(NC(=O)c2cc(C(N)=O)nc3cc(F)ccc23)c(C(F)(F)F)nn1Cc1ccc(C(C)(C)C)cc1: 14.7%
CC(C)(O)c1cncc(-c2nc3ccc(F)cc3n2C2CC2)c1: 1.47%
O=C([C@H]1C[C@H](O)CN1c1ccc(Cl)cc1)N1CC2COCC(C1)N2Cc1ccc(Cl)cc1: -27%
CNC(=O)Nc1ccc2c(c1)[C@]1(CC2)OC(=O)N(CC(=O)N(Cc2ccc(F)cc2)[C@@H](C)C(F)(F)F)C1=O: -6.45%
CC[C@H](CC(=O)O)n1c(=O)c2ncccc2n(Cc2cn(C)c3cc(C)cc(C)c23)c1=O: -18.2%
O[C@]1(C(F)(F)F)CCCC[C@H]1Nc1ccc(F)cc1: 56.5%
CC(=O)N1CCC(c2ccc(C(=O)NC(=N)N)cc2C(F)(F)F)CC1: 77.9%
CS(=O)(=O)NCC[C@H](NC(=O)c1cncc2c1cnn2-c1ccc(F)cc1)c1ccnc(S(C)(=O)=O)c1: 25.3%
Cc1cc(C)c(-n2ccn3nc(-c4cccnc4)cc23)cc1NC(=O)c1cc(C#N)cc(S(F)(F)(F)(F)F)c1: 10.7%
Cc1nccc(COC(=O)N2C[C@@H]3[C@@H](CNC(=O)c4ccc5[nH]nnc5c4)[C@@H]3C2)n1: -17.6%
C[C@@H]1CN(c2cc(-c3nn(C)c4ccc(OC5(C)CC5)cc34)ncn2)C[C@H](C)O1: -24.4%
COCc1nc2cnc3cc(-c4c(C)noc4C)c(OC[C@H]4CCNC4)cc3c2n1[C@H](C)c1ccccc1: 27.9%
CCCOc1ccc([C@H]2[C@H](C(=O)O)[C@@H](c3ccc4c(c3)OCO4)CN2CC(=O)Nc2c(CC)cccc2CC)cc1: -20.1%
Cc1nc(N2CC[C@@H](O)C2)ncc1-c1cc(C(F)(F)F)cc2[nH]ncc12: 75.2%
C[C@H](NC(=O)c1cnc2n1[C@](C)(Cc1ccc(C#N)cc1)C(=O)N2c1cc(Cl)c(F)c(Cl)c1)C(=O)NC1(c2ccccn2)CC1: -14.8%
CN1C(=O)[C@@H](N2CCc3c(nn(Cc4ccccc4)c3Br)C2=O)COc2ccccc21: -8.33%
CC(=O)c1c(NS(C)(=O)=O)c2cc(-c3ccc(Cl)cc3)c(-c3ccc(Cl)cc3Cl)nc2n(C)c1=O: 67.1%
CC1=C(C#N)C(c2ccc3c(c2)c(NC(=O)c2ccccc2C)nn3C)C(C#N)=C(C)N1: -13.2%
CNC(=O)c1cc(C(=O)NC2CC2)cn(Cc2ccccc2)c1=O: -18.4%
CC(C)CC(=O)N1CCc2nc(-c3ccc(Br)cc3)nc(N(C)Cc3ccccc3)c2C1: 15.3%
CC(=O)Nc1c(F)cc(C(=O)N[C@H]2CC[C@H](O)CC2)cc1O[C@@H](C)c1ccccc1: 3.3%

Block 5
Target: Mamu-B*01 macaque
Effect on: peptide-MHC binding
Molecule type: peptide
Tested at: concentration not given
Measurement: binding
ADDIVEKL: inactive
EDVVLVRI: inactive
VDFLEENI: inactive

Single results of other studies
O=C(Nc1ccc2[nH]ncc2c1)c1cc(N2CCNCC2)c(F)cc1F
remaining compound (mouse, microsomes or S9; 2 µM, 0.5 h): 28.1%

[N-]=[N+]=CC(=O)CC[C@H](N)C(=O)O
GI histopathology sum score (histopathology, scale 0-6; mouse C57BL/6 CES1-/-, GI tissue; intravenous, 1 mg/kg; direction not given): 6

CCCNS(=O)(=O)c1ccc(OCC(=O)N2CCN(Cc3ccc4c(c3)OCO4)CC2)c(C)c1
remaining compound (mouse, microsomes or S9; 2 µM, 0.5 h): 38.4%

CCOP(=S)(OCC)Oc1cc(C)nc(C(C)C)n1
viability (HaCaT; 100 µM, 60 h): 143%

Repeated from above (block 2):
B4 (TRIM60 RING domain): 0
B5 (TRIM31 RING domain): 0
FVKTVEDKYKCEKCHLVLCSPKQTECGHRFCESCMAALLSSSSPKCTACQESIVKDKVF (TRAF3 RING domain (UniProt Q13114)): 0
KPDKMEETLTCIICQDLLHDCVSLQPCMHTFCAACYSGWMERSSLCPTCRCPVERICKNH (CHFR RING domain (UniProt Q96EP1)): 10800
B2 (MKRN2 RING domain): 0
B1 (MEX3B RING domain): 0
RYRQMEERITCPICIDSHIRLVFQCGHGACAPCGSALSACPICRQPIRDRIQIF (MIB2 RING domain (UniProt Q96AX9)): 0
